Published values gathered from unrelated publications.
Protocols differ between the studies behind these lines. “And” joins repeats or separate records; there may be more than shown. ± marks the error that the study gave.

CC1(C)CC[C@@]2(CO)C(=C3C=C[C@@H]4[C@@]5(C)CC[C@H](O)[C@@](C)(CO)[C@@H]5CC[C@@]4(C)[C@]3(C)C[C@@H]2O)C1 — plasma concentration (UHPLC-MS/MS; mouse, plasma; oral, 50 mg/kg of saikosaponin a, 2 h): 0.00209 µg/mL
Cc1cc(C(=O)N[C@@H](CC(=O)NC(C)(C)C)C(=O)NCCNC(=O)c2cc(-c3ccccc3)ccn2)no1 — plasma concentration (mouse, plasma; oral, 1 mg/kg): < 0.002 µg/mL
[2H]C([2H])(N)C([2H])([2H])NC(=O)c1cc(C2CC2)nc2c1cnn2C(C)C — plasma concentration (mouse BALB/c female, plasma; intraperitoneal, 50 mg/kg, 12 h): 0.0893 µg/mL and 0.0704 µg/mL and 0.0515 µg/mL and 0.0451 µg/mL
C=CC(=O)N1CCCC(n2c(=O)c3ncccc3n(Cc3ccc(Oc4ccccc4)cc3)c2=O)C1 (stereo not shown) — plasma concentration (male BALB/c mouse, plasma; oral, 200 mg/kg, 0.0833 h): 9.52 µg/mL
O=C1CCC(N2Cc3cc(C(=O)O)c(F)cc3C2=O)C(=O)N1 (stereo not shown) — plasma concentration (CD-1 mouse, male; oral, 10 mg/kg parent drug, 1 h): 0.221 ± 0.115 µg/mL
CC(C)n1ncc2c(C(=O)NC[C@@H](C)N)cc(C3CC3)nc21 — plasma concentration (mouse BALB/c female, plasma; intraperitoneal, 30 mg/kg, 4 h): 0.927 µg/mL
Cc1ncsc1-c1ccc(CNC(=O)[C@@H]2C[C@@H](O)CN2C(=O)[C@@H](NC(=O)COCC(C)(COCCOCCOCCNC(=O)C[C@@H]2N=C(c3ccc(Cl)cc3)c3c(sc(C)c3C)-n3c(C)nnc32)COCCOCCOCCNC(=O)C[C@@H]2N=C(c3ccc(Cl)cc3)c3c(sc(C)c3C)-n3c(C)nnc32)C(C)(C)C)cc1 — plasma concentration (C57BL/6 mouse, male, plasma; intravenous, 5 mg/kg, 5 min): 39.4 µg/mL
O=C1C2CC3CC1CC(C(=O)N1CCN(c4ccc([N+](=O)[O-])c5ncccc45)CC1)(C3)C2 — plasma concentration (ICR mouse, male; oral, 5 mg/kg, 1 h): 0.0126 µg/mL
CC#CC(=O)N1CCC[C@H]1c1nc(-c2ccc(C(=O)Nc3ccccn3)cc2)c2c(N)nccn12 — plasma concentration (mouse, TMD8 tumour-bearing, plasma; 30 mg/kg twice daily, 8 h): 0.0161 µg/mL
Cc1ccc(OCC(=O)N(Cc2cccs2)c2ccn[nH]2)cc1 — plasma concentration (mouse, CD-1, male, plasma; oral, 30 mg/kg, 0.25 h): 0.382 µM
CCC(=O)N(C)c1ccc(Cl)c(Cl)c1 — plasma concentration (LC-MS/MS; mouse C57BL/6 female, plasma; oral, 10 mg/kg, 2 h): 0.0262 µg/mL and 0.0246 µg/mL
C=CC(=O)N1CCC[C@@H](c2ccc(C(N)=O)c3[nH]ccc23)C1 — plasma concentration (mouse, TMD8 tumour-bearing, plasma; 30 mg/kg twice daily, 8 h): 0.0068 µg/mL
Cc1nn(-c2nc3c(F)cc(F)cc3s2)c(O)c1C(c1ccc(C(F)(F)F)cc1)c1c(C)nn(-c2nc3c(F)cc(F)cc3s2)c1O — plasma concentration (ICR mouse; intraperitoneal, 10 mg/kg, 2.00 h): 4.55 µg/mL and 4.37 µg/mL and 2.56 µg/mL

Excerpt of the above:
CC#CC(=O)N1CCC[C@H]1c1nc(-c2ccc(C(=O)Nc3ccccn3)cc2)c2c(N)nccn12 — plasma concentration (mouse, TMD8 tumour-bearing, plasma; 30 mg/kg twice daily, 8 h): 0.0161 µg/mL
